Measurements of several laboratories.
Protocols differ between the studies behind these lines.
Organism: Staphylococcus aureus

| Structure (SMILES) | assay | test system | conditions | MIC |
| --- | --- | --- | --- | --- |
| c1ccc(CCNC2CCCc3c2[nH]c2ccc(C4CCCCC4)cc32)cc1 (stereo not shown) | broth microdilution |  |  | 4 µg/mL |
| C#CCOc1ccc(CN[C@@]2(C)C[C@H](O[C@H]3[C@H](Oc4c5cc6cc4Oc4ccc(cc4Cl)[C@@H](O)[C@@H](NC(=O)[C@@H](CC(C)C)NC)C(=O)N[C@@H](CC(N)=O)C(=O)N[C@H]6C(=O)N[C@H]4C(=O)N[C@H](C(=O)N[C@H](C(=O)NCC(N)=O)c6cc(O)cc(O)c6-c6cc4ccc6O)[C@H](O)c4ccc(c(Cl)c4)O5)O[C@H](CO)[C@@H](O)[C@@H]3O)O[C@@H](C)[C@H]2O)cc1OC |  | LIM-2 VISA |  | 2 µM |
| CC[C@H](C)[C@H](NC(=O)[C@@H](CCCNC(=N)N)NC(=O)[C@H](CCCNC(=N)N)NC(=O)[C@@H]1CCCN1C(=O)[C@@H]1CCCN1C(=O)[C@H](Cc1ccccc1)NC(=O)[C@@H]1CCCN1C(=O)[C@H](CCCNC(=N)N)NC(=O)[C@@H]1CCCN1C(=O)[C@H](CC(C)C)NC(=O)[C@H](Cc1ccc(O)cc1)NC(=O)[C@@H]1CCCN1C(=O)[C@@H]1CCCN1C(=O)[C@H](CCCCN)NC(=O)[C@H](CC(=O)O)NC(=O)[C@@H](N)C(C)C)C(=O)N[C@@H](Cc1ccc(O)cc1)C(=O)N[C@@H](CC(N)=O)C(=O)N[C@H](CCCNC(=N)N)C(N)=O | broth microdilution | DSM 6247 | 18 h, 37 °C, 25% MHB2 | > 128 µg/mL |
| CC[C@H](C)[C@H](NC(=O)[C@H](Cc1c[nH]c2ccccc12)NC(=O)[C@H](Cc1ccc(O)cc1)NC(=O)[C@H](CCCCN)NC(=O)[C@H](CC(C)C)NC(=O)[C@@H](N)CO)C(=O)N[C@@H](CCCNC(=N)N)C(=O)N[C@@H](Cc1ccc(O)cc1)C(=O)N[C@@H](CCCCN)C(=O)N[C@@H](CCCNC(=N)N)C(=O)N[C@@H](CCC(N)=O)C(=O)NCC(=O)N[C@@H](C)C(=O)N[C@@H](C)C(=O)N[C@@H](CCCNC(=N)N)C(=O)N[C@@H](Cc1ccccc1)C(N)=O | broth dilution | ATCC 25923, Mueller-Hinton broth | 24 h, 37 °C | 25 µM |
| CC(C)CCCCCCCCC/C=C/C(=O)N[C@@H](CC(=O)O)C(=O)N[C@H]1CNC(=O)[C@@H]2CCCN2C(=O)[C@H](C(C)C)NC(=O)[C@@H](CN)NC(=O)CNC(=O)[C@H](CC(=O)O)NC(=O)CNC(=O)[C@H](CC(=O)O)NC(=O)[C@H](CC(=O)O)NC(=O)[C@H]2CCCCN2C1=O | broth microdilution | VISA LIM strain 2, Mueller-Hinton broth, Mg2+ 10 mg/L | 16 h, with: Ca2+ 0 mM | > 128 µg/mL |
| CCCCCCCC[C@H](NC(=O)[C@@H]1CSC([C@@H](N)[C@@H](C)CC)=N1)C(=O)N[C@H](CCC(=O)O)C(=O)N[C@H](C(=O)N[C@H]1CCCCNC(=O)[C@H](CC(N)=O)NC(=O)[C@@H](CC(=O)O)NC(=O)[C@H](Cc2c[nH]cn2)NC(=O)[C@@H](Cc2ccccc2)NC(=O)[C@H]([C@@H](C)CC)NC(=O)[C@@H](CCCN)NC1=O)[C@@H](C)CC | broth microdilution | USA300 MRSA, LB medium | no added Zn2+ | 1 µg/mL |
| CC[C@H](C)[C@@H]1NC(=O)[C@H](CO)NC(=O)C(C)(CCCCN)NC(=O)[C@@H]2CSSC[C@@H](C(=O)N[C@@H](Cc3ccc(O)cc3)C(N)=O)NC(=O)[C@H](CCCCN)NC(=O)[C@@H]3CSSC[C@H](NC(=O)[C@H](CCCNC(=N)N)NC(=O)C(C)(CC(C)C)NC(=O)[C@H](CC(=O)O)NC(=O)[C@H](CC(=O)O)NC(=O)[C@H](CCC(=O)O)NC(=O)[C@H](CC(N)=O)NC(=O)[C@H](Cc4c[nH]c5ccccc45)NC(=O)C(C)(CC)NC(=O)CNC(=O)[C@H](CC(N)=O)NC(=O)[C@@H](NC(=O)CNC(=O)[C@H](Cc4ccccc4)NC(=O)CN)CSSC[C@H](NC(=O)[C@H](Cc4ccc(O)cc4)NC(=O)CNC(=O)CNC(=O)[C@H](CCCCN)NC(=O)[C@H](Cc4ccc(O)cc4)NC(=O)[C@H]4CCCN4C(=O)[C@@H]4CCCN4C1=O)C(=O)N[C@@H](C)C(=O)N[C@@H](CCCCN)C(=O)N1CCC[C@@H]1C(=O)NCC(=O)N[C@@H](Cc1ccccc1)C(=O)N[C@@H](C(C)C)C(=O)N3)C(=O)N[C@@H](Cc1c[nH]cn1)C(=O)NC(C)(C)C(=O)N[C@@H](Cc1c[nH]cn1)C(=O)N2 (stereo partly shown) |  | 473, methicillin-resistant mecA, cation-adjusted Mueller Hinton broth | 18 h, 37 °C | 2 µM |
| CC(C)C[C@H](NC(=O)[C@H](CC(C)C)NC(=O)[C@H](CCCCN)NC(=O)[C@H](Cc1ccccc1)NC(=O)[C@@H](NC(=O)[C@H](CCCNC(=N)N)NC(=O)[C@H](CCCCN)NC(=O)[C@H](Cc1c[nH]c2ccccc12)NC(=O)[C@@H](NC(=O)[C@@H](N)CCCNC(=N)N)C(C)C)C(C)C)C(=O)N[C@@H](CCCCN)C(=O)N[C@@H](CCCNC(=N)N)C(=O)N[C@@H](Cc1ccc(O)cc1)C(=O)N[C@@H](Cc1c[nH]c2ccccc12)C(=O)N[C@@H](CCCNC(=N)N)C(N)=O | broth microdilution | 25295 |  | 0.6 µg/mL |
| CC[C@H](C)[C@H](NC(=O)[C@H](C)NC(=O)CNC(=O)[C@@H](NC(=O)[C@@H](N)Cc1ccccc1)[C@@H](C)CC)C(=O)N[C@@H](C)C(=O)N[C@@H](CCCNC(=N)N)C(=O)N[C@@H](CC(C)C)C(=O)N[C@@H](CC(C)C)C(=O)N[C@@H](CO)C(=O)N[C@@H](CCCCN)C(=O)N[C@H](C(=O)N[C@@H](Cc1ccccc1)C(N)=O)[C@@H](C)CC | broth dilution | ATCC 25923 | 24 h, 37 °C | 6.25 µg/mL |
| CC[C@H](C)[C@H](NC(=O)[C@@H](CCCNC(=N)N)NC(=O)[C@H](CCCNC(=N)N)NC(=O)[C@@H]1CCCN1C(=O)[C@@H]1CCCN1C(=O)[C@H](CCCNC(=N)N)NC(=O)[C@@H]1CCCN1C(=O)[C@H](CCCNC(=N)N)NC(=O)[C@@H]1CCCN1C(=O)[C@H](Cc1ccccc1)NC(=O)[C@H](Cc1ccc(O)cc1)NC(=O)[C@@H]1CCCN1C(=O)[C@@H]1CCCN1C(=O)[C@H](CCCCN)NC(=O)[C@H](CC(=O)O)NC(=O)[C@@H](N)C(C)C)C(=O)N[C@@H](Cc1ccc(O)cc1)C(=O)N[C@@H](CC(N)=O)C(=O)N[C@H](CCCNC(=N)N)C(N)=O | broth microdilution | DSM 6247 | 18 h, 37 °C, 25% MHB2 | 128 µg/mL |
| COc1ccc(CC2[NH2+]CCc3cc(OC)c(OC)cc32)cc1OC.[Cl][Fe-]([Cl])([Cl])[Cl] (stereo not shown) |  |  | 24 h, 37 °C | > 1600 µM |
| CC[C@H](C)[C@H](NC(=O)CNC(=O)[C@@H](NC(=O)CNC(=O)[C@@H](NC(=O)CNC(=O)[C@@H](NC(=O)[C@@H](NC(=O)[C@H](CCC(N)=O)NC(=O)[C@H](CCC(=O)O)NC(=O)[C@@H](NC(=O)[C@H](CC(C)C)NC(=O)[C@H](CCCNC(=N)N)NC(=O)[C@H](Cc1ccccc1)NC(=O)[C@@H](NC(=O)[C@H](CC(N)=O)NC(=O)[C@H](CCCCN)NC(=O)CNC(=O)[C@H](CCSC)NC(=O)[C@H](CCCCN)NC(=O)CNC(=O)[C@H](CC(C)C)NC(=O)[C@H](CCCCN)NC(=O)[C@H](CCCCN)NC(=O)CNC(=O)[C@H](Cc1ccccc1)NC(=O)[C@H](CCCCN)NC(=O)[C@H](CCCCN)NC(=O)[C@H](CC(C)C)NC(=O)[C@H](Cc1c[nH]c2ccccc12)NC(=O)CN)C(C)C)C(C)C)C(C)C)C(C)C)C(C)C)C(C)C)C(=O)N[C@@H](CC(N)=O)C(=O)N[C@@H](C)C(=O)N[C@@H](CC(C)C)C(=O)N[C@@H](CO)C(=O)O | broth microdilution | ATCC 29213, Mueller-Hinton broth | 16 to 20 h, 37 °C | 17.6 µg/mL |
| CC[C@H]1OC(=O)[C@H](C)[C@@H](OC(=O)Cc2ccccc2)[C@H](C)[C@@H](O[C@@H]2O[C@H](C)C[C@H](N(C)C)[C@H]2O)[C@](C)(OC)C[C@@H](C)C(=O)[C@H](C)[C@@H](O)[C@]1(C)O | microbial growth | BAA976 |  | 8 µg/mL |
| CC[C@H](C)[C@H](NC(=O)[C@H](CCCCN)NC(=O)[C@@H](NC(=O)[C@@H](NC(=O)[C@H](CC(C)C)NC(=O)[C@H](CCCNC(=N)N)NC(=O)[C@@H](NC(=O)[C@H](CC(C)C)NC(=O)[C@H](CCCNC(=N)N)NC(=O)CNC(=O)[C@H](Cc1ccccc1)NC(=O)[C@@H](N)CCCNC(=N)N)[C@@H](C)CC)[C@@H](C)CC)C(C)C)C(=O)N[C@@H](C)C(=O)N[C@@H](CCCNC(=N)N)C(=O)N[C@@H](CCCNC(=N)N)C(=O)N[C@@H](C)C(=O)N[C@@H](Cc1c[nH]cn1)C(=O)N[C@@H](CCCNC(=N)N)C(=O)N[C@@H](C)C(=O)N[C@@H](CCCNC(=N)N)C(=O)N[C@@H](CO)C(=O)N[C@@H](C)C(=O)N[C@H](C(=O)N[C@@H](CCCCN)C(=O)N[C@@H](C)C(=O)N[C@@H](C)C(=O)N[C@@H](CO)C(=O)N[C@@H](CC(N)=O)C(=O)N[C@H](C(=O)N[C@@H](C)C(=O)N[C@@H](C)C(=O)N[C@@H](CC(C)C)C(=O)N[C@@H](C)C(=O)N[C@@H](Cc1c[nH]cn1)C(=O)NCC(=O)N[C@@H](C)C(N)=O)C(C)C)C(C)C | broth microdilution |  | 18 h, 37 °C | ≤ 0.064 µM |
| CCn1c(-c2ccc(OC)cc2)c(-c2ccc(OC)cc2)n(Cc2c(C)cc(C)cc2C)c1=[Se] | microbial growth, broth dilution | ATCC700699 VISA | 24 h, drug-resistant strain | > 40 µM |
| C#CCOc1ccc(CN[C@@]2(C)C[C@H](O[C@H]3[C@H](Oc4c5cc6cc4Oc4ccc(cc4Cl)[C@@H](O)[C@@H](NC(=O)[C@@H](CC(C)C)NC)C(=O)N[C@@H](CC(N)=O)C(=O)N[C@H]6C(=O)N[C@H]4C(=O)N[C@H](C(=O)N[C@H](C(=O)N[C@@H](CCCNC(=N)N)C(N)=O)c6cc(O)cc(O)c6-c6cc4ccc6O)[C@H](O)c4ccc(c(Cl)c4)O5)O[C@H](CO)[C@@H](O)[C@@H]3O)O[C@@H](C)[C@H]2O)cc1OC |  | MSSA ATCC 29213 |  | 0.281 µM |
| CSCC[C@H](NC=O)C(=O)N[C@@H](CCCNC(=N)N)C(=O)N[C@H](C(=O)NCC(=O)N[C@@H](CC(N)=O)C(=O)N[C@@H](C)C(=O)N[C@@H](CC(N)=O)C(=O)O)[C@@H](C)O | broth dilution | Newman |  | > 200 µM |
| N=C(N)NCCC[C@@H]1NC(=O)[C@H](CCCNC(=N)N)NC(=O)[C@H](CCCNC(=N)N)NC(=O)[C@@H](CCCNC(=N)N)NC(=O)[C@H](Cc2ccc3ccccc3c2)NC(=O)[C@H](Cc2ccc3ccccc3c2)NC(=O)[C@H](Cc2ccc3ccccc3c2)NC1=O |  | 1195201, multidrug-resistant |  | 4 µg/mL |
| C#CCNC(=O)[C@H]1NC(=O)[C@H]2NC(=O)[C@H](NC(=O)[C@@H]3NC(=O)[C@H](CC(N)=O)NC(=O)[C@H](NC(=O)[C@@H](CC(C)C)NC)[C@H](O)c4ccc(c(Cl)c4)Oc4cc3cc(c4O[C@@H]3O[C@H](CO)[C@@H](O)[C@H](O)[C@H]3O[C@H]3C[C@](C)(N)[C@H](O)[C@H](C)O3)Oc3ccc(cc3Cl)[C@H]2O)c2ccc(O)c(c2)-c2c(O)cc(O)cc21 |  | NRS402 VISA |  | 3 µM |

Repeated from above:
| Structure (SMILES) | assay | test system | conditions | MIC |
| --- | --- | --- | --- | --- |
| CC[C@H]1OC(=O)[C@H](C)[C@@H](OC(=O)Cc2ccccc2)[C@H](C)[C@@H](O[C@@H]2O[C@H](C)C[C@H](N(C)C)[C@H]2O)[C@](C)(OC)C[C@@H](C)C(=O)[C@H](C)[C@@H](O)[C@]1(C)O | microbial growth | BAA976 |  | 8 µg/mL |
| C#CCOc1ccc(CN[C@@]2(C)C[C@H](O[C@H]3[C@H](Oc4c5cc6cc4Oc4ccc(cc4Cl)[C@@H](O)[C@@H](NC(=O)[C@@H](CC(C)C)NC)C(=O)N[C@@H](CC(N)=O)C(=O)N[C@H]6C(=O)N[C@H]4C(=O)N[C@H](C(=O)N[C@H](C(=O)N[C@@H](CCCNC(=N)N)C(N)=O)c6cc(O)cc(O)c6-c6cc4ccc6O)[C@H](O)c4ccc(c(Cl)c4)O5)O[C@H](CO)[C@@H](O)[C@@H]3O)O[C@@H](C)[C@H]2O)cc1OC |  | MSSA ATCC 29213 |  | 0.281 µM |
